Experimental data collected from several papers.
A part holds a random share of what one study measured.

Set 1 — method: protein-binding microarray; form: double-stranded DNA, one strand shown; sample: in vitro; concentration: 250 nM; notes: 60-bp whole probe; with: salmon DNA 0.4 mg/ml; relative to: random background probes; reading: higher = stronger binding; quantity: log fluorescence
Target: Interferon regulatory factor 7, full length, phosphomimetic (IRF7, Homo sapiens, UniProt Q92985, residues 1-503, S101K/S471D/S472D/S475D/S476D/S477D/S483D/S484D/S487D)
Construct (chain): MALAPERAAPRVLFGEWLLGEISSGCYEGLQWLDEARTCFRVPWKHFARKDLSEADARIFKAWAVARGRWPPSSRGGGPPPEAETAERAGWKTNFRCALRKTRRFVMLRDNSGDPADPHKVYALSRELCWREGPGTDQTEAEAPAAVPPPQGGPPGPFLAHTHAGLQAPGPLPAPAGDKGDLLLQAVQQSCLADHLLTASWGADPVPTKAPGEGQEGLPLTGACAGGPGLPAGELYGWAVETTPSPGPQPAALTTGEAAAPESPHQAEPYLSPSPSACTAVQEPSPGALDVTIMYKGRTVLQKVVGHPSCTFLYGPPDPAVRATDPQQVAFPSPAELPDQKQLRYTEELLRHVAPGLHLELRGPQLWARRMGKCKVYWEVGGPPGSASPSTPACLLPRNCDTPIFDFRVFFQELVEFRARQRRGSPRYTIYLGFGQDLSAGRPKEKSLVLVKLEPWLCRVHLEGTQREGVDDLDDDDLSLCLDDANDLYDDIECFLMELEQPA
GCCTAGCACTGCTTCCTAATTCTCTTTTCGTGCTAGGTCTTGATTCGCTTGACGCTGCTG: 2.66 z-score
GCCTAGCACTACTCTACAGGGTTTCACTTTGTGCTAGTCTTGATTCGCTTGACGCTGCTG: 4 z-score
GCCTAGCACTTAGATATCGGGTATCGAATAGTGCTAGTCTTGATTCGCTTGACGCTGCTG: 0.228 z-score
GCCTAGCACAGGTGGGAGGGGACAGTGGTGTGCTAGGTCTTGATTCGCTTGACGCTGCTG: 0.405 z-score

Set 2 — method: protein binding microarray; form: double-stranded DNA, one strand shown; sample: in vitro; concentration: not given; relative to: not given; reading: higher = stronger binding; quantity: E-score
Target: Histone acetyltransferase KAT6A, winged helix 1, GST fusion (KAT6A, Homo sapiens, UniProt Q92794, residues 1-85)
Notes: 8-mer, flanks averaged, mean of 2 arrays, mostly near background
Target sequence (chain): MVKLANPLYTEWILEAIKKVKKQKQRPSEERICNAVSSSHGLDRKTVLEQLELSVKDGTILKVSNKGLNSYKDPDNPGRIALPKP
CACACCAA: 0.0377
CAAGTACC: 0.0482
GATGTAAA: -0.00789
AGTCATAC: 0.00754
TGGCCCCA: -0.258

Set 3 — method: universal PBM; form: double-stranded DNA, one strand shown; sample: in vitro; concentration: not given; reading: higher = stronger binding; quantity: E-score
Target: Sal-like protein 4, full length isoform B (SALL4, Homo sapiens, UniProt Q9UJQ4-2, residues 1-616)
Notes: 8-mer, flanks averaged, mean of replicates
GAAGCCTC: -0.197
ACTGATCC: -0.0368
GTAACGCA: 0.0479
GTAGAAGA: -0.0927
CGAGCCCC: -0.287

Mixed results
PhoQ, residues 284 288 289 292 302 303 ASVMEA
fold induction (PhoP, residues 12 14 15 18 19 LFHKL (Escherichia coli, UniProt P23836); Sort-seq, item: YFP reporter; E. coli; PhoQ-PhoP variant library, with: 10 µM Mg2+; relative to: high Mg2+ state, higher = stronger signaling): 22.4

For quick reference, copied from above (mixed results):
PhoQ, residues 284 288 289 292 302 303 ASVMEA
fold induction (PhoP, residues 12 14 15 18 19 LFHKL (Escherichia coli, UniProt P23836); Sort-seq, item: YFP reporter; E. coli; PhoQ-PhoP variant library, with: 10 µM Mg2+; relative to: high Mg2+ state, higher = stronger signaling): 22.4
